Results collected from several papers.
Numbered parts are unrelated; each lists some results of a single study.

Study 1
Target: Protein max, full length (MAX, Homo sapiens, UniProt P61244-2, residues 1-151)
Method: protein-binding microarray
Form: double-stranded DNA, one strand shown
Matrix: in vitro
Tested at: not given
Setting: k-mer, scored over probes, only values ≥0.25
Direction: higher = stronger binding
| Sequence | E-score |
| --- | --- |
| CGCATGTA | 0.395 |
| AACGTGCG | 0.428 |
| CATGCAAA | 0.26 |
| GAACACGA | 0.338 |
| ACGTGGAT | 0.426 |
| ACTGCATG | 0.335 |
| GTGACACA | 0.256 |
| CTCCCCAC | 0.252 |
| ATCACACG | 0.369 |
| CGTGACTC | 0.337 |
| CCGTCACG | 0.299 |
| ACGACACG | 0.327 |
| GGGTGGGA | 0.27 |
| ATGCCCGC | 0.275 |
| CTCATGAC | 0.288 |
| ACCCACGG | 0.28 |
| CATGCCCG | 0.364 |
| CCGTGCTC | 0.266 |
| GCGCACGA | 0.366 |
| GACATGCC | 0.335 |
| ACCCCATG | 0.383 |

Study 2
Target: RNA binding protein fox-1 homolog 2, RRM domain, GST-SBP tag (RBFOX2, Homo sapiens, UniProt O43251-10, residues 100-194)
Method: RNA Bind-n-Seq
Form: RNA
Matrix: in vitro
Tested at: 365 nM
Setting: natural RNA segment, single round, ends assumed
Relative to: no-protein control
Direction: higher = stronger binding
Constant ends, left off below: GGGAGUUCUACAGUCCGACGAUC … UGGAAUUCUCGGGUGCCAA
Construct (chain): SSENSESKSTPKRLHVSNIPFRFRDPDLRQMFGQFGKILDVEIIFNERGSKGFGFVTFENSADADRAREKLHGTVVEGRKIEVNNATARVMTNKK
| Sequence | RBNS enrichment (R) |
| --- | --- |
| UUUGCGUGACUUUGUUCUUCCUUUACUACUCUGUAUGUAAUAUAUAUACAUAUAUACGUACAUAUGCUGUCCAAAUAUAUUUGUAUAUAUUUGUAUAGCAUUUUUACACC | 0.241 |
| GCCAAAGACAUUUCAAGUGCCUGUAACUGAUUUGUCCAUAUUUAUAAACACUGAUCUGGAAAUUGGUCCUGUGAUGCACGUGCUUUGCCCUGGAUGCACCUGAACUCGUC | 11.2 |
| AAAUGUGACCGGUGUAGCUGUAGUUUGUACUUUCCUGGGGACCUUCUGCUGGGGUUUGUGUAAGCUGUGAUUCUUUCCCUUCCUAAUAGGUUGAGCUUGACAUGGAAAGG | 2.2 |
| GGCGAUGUGUUAUAGACGGUGCUCACUCCCAAGGGACAGCAAGUGAGCAGAGAUGUACUGCAAAGUCGCCAGUCACUGCUGCAAGGUGGCCUCUGCCUGGGGCCUCCAGA | 0.307 |
| UAUAUUAAUUUUAAUUUGCUGCUAAGCAAAGACUAGGGACAGGCAAAGAUAAUUUAUGGCAAAGUGUUUAAAUUGUUUAUACAUAAAUAAAGUCUCUAAAACUCCUGUGG | 0.501 |
| UUCAGAUUAAUGUUCUACUACUUGUGACUGAGAAAAGUUUAAUGCCGGCAUGGUAAAAGGAAGCUGUCUCCCUUCUGACAUUUCCUAGGAAGCUAGGAAAAGGAAAGUGA | 0.501 |
| UUGCCUUCCUGGAGUAAAUAUUGGCACAGAUUUCAUUUGAGAGAACUCAGCCCCCUGGUCUAAGCUGGACUUACCUCUGUGGAUUCUGAAAUUAAAGAAGUGAGUUGCUA | 2.14 |
| CACGCAGCUCUCUGGUUAGACUUCUCCCAGGCUAUGAUCCUGGCAUGUCCUUUAUAAGGUAUACUUGGAUUGGCCGAGACCUGGCCUGGCAUCAGGAGUCCAAACCUCUG | 0.337 |
| GGCCAGCGGGGGGACGGAGGCGGCGGGCCCAGGAGCCUCAGCCAGCCACGUGGGCAUCCACUCCUUUUCCUGCAAGAGAUGAUGGUUCCAUUGCUCUUGGCUUCAUGGUG | 0.523 |
| UCCUGCCUUAGCCUCCUGAGUAGCUGGGUCAGCCACCAUGGCUGACUCAUUUUUUGUAUUUUUAGUAGAGAAGGGGUUUUACCGUGUUAGCCAGGCUGGUCUUGAACUCC | 1.15 |
| GCUGUGGCCAGACAGAUGACACCUUUUGUUAUGUUGAAAUUAACUUGCUAGGCAACCCUAAAUUGGGAAGCAAGUAGCUAGUAUAAAGGCCCUCAAUUGUAGUUGUUUCC | 0.321 |
| AAAAUCUGGGGGCUGCCACUGUACUUAACAUCUUCAUUUGAAGCCUUUCAGAUUUCCAUAAAGCCAGCAAUCAGAAAGGAUCUCUCUUCCAUACCACUGUUCUUGCUAAA | 0.281 |

Study 3
Target: Interferon regulatory factor 7, full length, phosphomimetic (IRF7, Homo sapiens, UniProt Q92985, residues 1-503, S471D/S472D/S475D/S476D/S477D/S483D/S484D/S487D)
Sequence of UniProt Q92985 (whole entry, unmodified, looked up): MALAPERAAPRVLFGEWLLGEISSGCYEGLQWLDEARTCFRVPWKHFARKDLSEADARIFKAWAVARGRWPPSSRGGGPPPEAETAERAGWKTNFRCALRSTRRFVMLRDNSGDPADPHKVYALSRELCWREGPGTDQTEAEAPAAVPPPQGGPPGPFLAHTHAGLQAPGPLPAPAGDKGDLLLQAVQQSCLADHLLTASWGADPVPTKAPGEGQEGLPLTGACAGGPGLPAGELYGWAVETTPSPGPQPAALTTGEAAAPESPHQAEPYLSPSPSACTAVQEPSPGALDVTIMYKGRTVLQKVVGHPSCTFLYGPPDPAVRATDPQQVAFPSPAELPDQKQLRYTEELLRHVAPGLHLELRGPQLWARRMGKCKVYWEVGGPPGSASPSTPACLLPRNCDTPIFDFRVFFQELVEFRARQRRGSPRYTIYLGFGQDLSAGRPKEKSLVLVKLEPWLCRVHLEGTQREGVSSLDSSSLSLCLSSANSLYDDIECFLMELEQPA
Method: protein-binding microarray
Form: double-stranded DNA, one strand shown
Matrix: in vitro
Tested at: 2200 nM top
Setting: 60-bp whole probe
Added: salmon DNA 0.4 mg/ml
Relative to: random background probes
Direction: higher = stronger binding
Constant ends, left off below: GCCTAGCAC … GTCTTGATTCGCTTGACGCTGCTG
| Sequence | fitted relative affinity [z-score] |
| --- | --- |
| TAAGATCTCAGACTGGATTAGTGCTAG | -0.285 |
| TAATTTCCATTTTCTAAATTCGTGCTA | 4.13 |
| TTCACTCTCTGCTTGTGTCTGTGCTAG | 2.12 |
| GAGGATTTCAGTTCCGAGACGTGCTAG | 0.827 |
| GACGGTATCGGGACTAGGGACGTGCTA | -0.41 |
| GCCGGTTTCCTTTCCCTGACGTGCTAG | 5.41 |
| TCATGTGTTACTTTCTAACTGTGCTAG | 2.43 |
| GACGAACTGAGGTTCGAGACGTGCTAG | -0.164 |
| TTAGATATCTGACTGGATTAGTGCTAG | -0.17 |
| GACGCTTTCCTTTCCCTGACGTGCTAG | 6.37 |
| TTAGGTATCGTGACTGGGTTAGTGCTA | 0.0484 |
| CCACCACCAACACCAGTCATGTGCTAG | 0.341 |
| TTAGGTCTCGGACTGGGTCAGTGCTAG | -0.423 |
| TTACCCCATCCCCCTTTTCTGTGCTAG | 1.15 |
| GACCATCTCAGTTTCGAGACGTGCTAG | 3.67 |
| GACGGTTTCGGTTCCCGGACGTGCTAG | 13.3 |
| GACCGTTTCGGGTTTCGGGACGTGCTA | 6.98 |
| TCAAGTTTCACTGCTGCACTGTGCTAG | 1.89 |

Study 4
Target: Histone acetyltransferase KAT6A, winged helix 2, GST fusion (KAT6A, Homo sapiens, UniProt Q92794, residues 85-181)
Method: protein binding microarray
Form: double-stranded DNA, one strand shown
Matrix: in vitro
Tested at: not given
Setting: 8-mer, flanks averaged, mean of 2 arrays, mostly near background
Relative to: not given
Direction: higher = stronger binding
Target sequence (chain): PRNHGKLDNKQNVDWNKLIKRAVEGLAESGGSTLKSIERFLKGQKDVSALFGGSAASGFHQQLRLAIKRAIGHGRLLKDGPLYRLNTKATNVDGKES
| Sequence | E-score |
| --- | --- |
| GACATAGC | 0.0567 |
| TGCTCCAA | 0.0786 |
| GGCGATTA | 0.00789 |
| CCGCCATA | 0.135 |
| TCGATCAA | 0.0416 |
| GCTTCTCC | -0.0957 |
| ACGATACT | -0.0333 |
| CCTTGTCG | 0.0617 |
| CCCGTGAC | -0.00103 |
| ACGCCTCC | -0.0101 |
| GATATTAA | 0.135 |
| GTATGGAA | -0.0548 |
| CTCATATC | -0.0567 |
| AGCAATCG | -0.0622 |
| GGTCTCAC | -0.0914 |
| ATTGCTGC | -0.0423 |

Study 5
Target: PABPC1L2, full length, GST fusion (mouse, UniProt A0ABA7IW68)
Method: RNAcompete
Form: RNA
Matrix: in vitro
Tested at: 20 nM
Setting: 7-mer, probes averaged, single round
Relative to: mean of 7-mers
Direction: higher = stronger binding
Residues (chain): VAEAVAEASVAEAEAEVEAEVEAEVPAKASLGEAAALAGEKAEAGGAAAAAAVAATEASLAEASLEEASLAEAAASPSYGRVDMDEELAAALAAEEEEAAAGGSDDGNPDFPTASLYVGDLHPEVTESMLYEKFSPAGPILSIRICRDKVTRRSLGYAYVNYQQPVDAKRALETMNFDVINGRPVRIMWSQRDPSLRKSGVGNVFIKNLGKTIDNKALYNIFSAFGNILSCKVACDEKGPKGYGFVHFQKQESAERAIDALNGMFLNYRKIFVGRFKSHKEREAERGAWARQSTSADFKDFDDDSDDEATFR
| Sequence | 7-mer Z-score |
| --- | --- |
| UGUCCCA | -0.264 |
| AACGGUU | 0.00979 |
| CUAUGGU | 0.0406 |
| AAGCAUG | 0.211 |
| UGUUACC | -0.325 |
| GGUGAGG | 0.204 |
| ACGAUCG | -0.119 |
| CGAUCGG | -0.11 |
| GCUUCGA | -0.19 |
| GCCGAAC | -0.177 |
| GGUACCA | 0.0134 |
| GCGGGGG | 0.637 |
| ACGGGCU | 0.332 |
| CGAAACU | -0.142 |
| GACAUCG | -0.231 |
| UCGGACU | -0.248 |

Some of these lines once more (study 4):
| Sequence | E-score |
| --- | --- |
| GGCGATTA | 0.00789 |
| CCGCCATA | 0.135 |
| TCGATCAA | 0.0416 |
| GCTTCTCC | -0.0957 |
| ACGATACT | -0.0333 |
| CCTTGTCG | 0.0617 |
| CCCGTGAC | -0.00103 |
| ACGCCTCC | -0.0101 |
| GATATTAA | 0.135 |
| GTATGGAA | -0.0548 |
| CTCATATC | -0.0567 |
| AGCAATCG | -0.0622 |
| GGTCTCAC | -0.0914 |
